Published values gathered from unrelated publications.
Protocols differ between the studies behind these lines. ± marks the error that the study gave.
MET M1250T: Hepatocyte growth factor receptor (MET, Homo sapiens, UniProt P08581, M1250T)
MET: Hepatocyte growth factor receptor (MET, Homo sapiens, UniProt P08581)
UCHL1: Ubiquitin carboxyl-terminal hydrolase isozyme L1 (UCHL1, Homo sapiens, UniProt P09936)
UniProt P09936, sequence (whole entry, looked up): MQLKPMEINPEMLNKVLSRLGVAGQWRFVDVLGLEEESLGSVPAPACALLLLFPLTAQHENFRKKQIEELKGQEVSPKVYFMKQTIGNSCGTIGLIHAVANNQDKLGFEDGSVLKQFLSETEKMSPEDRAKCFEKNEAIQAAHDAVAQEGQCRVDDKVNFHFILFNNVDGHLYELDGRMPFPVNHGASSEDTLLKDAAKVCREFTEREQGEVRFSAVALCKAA

Structure (SMILES)	target	assay	setting	scale	endpoint	result
COc1cc(-c2cncc3c2CN(C)Cc2cc(N4CCNCC4)ccc2-3)cc(OC)c1OC	MET M1250T	kinase activity	1 µM, with: ATP 10 µM	reference: DMSO control	remaining activity	86%
C1=C/COCc2cc(ccc2OCCN2CCCC2)Nc2nccc(n2)-c2cccc(c2)COC/1	MET M1250T	–	concentration not given	reference: untreated control	remaining activity	97%
COc1ccc(F)cc1C(=O)NCc1ccc(-c2nn([C@@H](C)C(F)(F)F)c(N)c2C(N)=O)cc1	MET	kinase activity, inhibitor, HotSpot radiometric	100 nM, with: ATP 10 µM	–	remaining activity	100 ± 1.9%
COc1cc(N2CCN(C)CC2)ccc1Nc1nc(N)n(C(=O)NCc2c(Cl)cccc2Cl)n1	MET	enzyme activity	10 µM	reference: control	remaining activity	7.6%
CC#CC(=O)NC1CCN(S(=O)(=O)c2ccc(C)cc2)C1 (centres unmarked)	UCHL1	covalent, intact protein LC-MS	12.5 µM	–	labelling	16.1%
C=CC(=O)N1CCC([C@@H]2CCNc3c(C(N)=O)c(-c4ccc(Oc5ccccc5)cc4)nn32)CC1	MET	kinase activity, inhibitor, HotSpot radiometric	100 nM, with: ATP 10 µM	–	remaining activity	66.2%
COc1ccc(NC(=O)C(C#N)=Cc2cccc(O)c2)cc1Cl	UCHL1	covalent, intact protein LC-MS	12.5 µM	–	labelling	36.6%
O=C(NC1CCC1)c1ccc2nc(-c3cccc(NS(=O)(=O)NCCN4CCCCC4)c3)cn2c1	Hepatocyte growth factor receptor (MET, Homo sapiens, UniProt P08581, Y1235D)	enzyme activity	10 µM	–	remaining activity	100%
COc1cc(N2CCN(C)CC2)ccc1Nc1nc(N)n(C(=S)NCc2c(Cl)cccc2Cl)n1	MET M1250T	enzyme activity	10 µM	reference: control	remaining activity	0%
CCCOc1ccc(OC)c(F)c1C(=O)c1ccc(C(=O)N[C@@H]2CNC[C@H]2NC(=O)c2ccc3[nH]ncc3c2)cc1	MET M1250T	enzyme activity	10 µM	–	remaining activity	76%
Cc1cc(Nc2cc(N3CCN(C)CC3)nc(Sc3ccc(NC(=O)C4CC4)cc3)n2)[nH]n1	MET	kinase activity, KinaseProfiler	0.03 µM, species human	reference: control	remaining activity	104%
Cc1[nH]c(/C=C2\C(=O)Nc3ccc(F)cc32)c(C)c1C(=O)N[C@H]1CCN(C(=O)N(C)C)C1	MET	kinase activity, inhibitor	1 µM	reference: no-compound control	remaining activity	78%
CCN(CC)c1ccc(C2=NNC(=O)CC2C)cc1[N+](=O)[O-] (centres unmarked)	MET	enzyme activity, inhibitor	10 µM	reference: vehicle	remaining activity	84%
COc1cc(N2CCN(C)CC2)ccc1Nc1nc(N)n(C(=O)NCc2ccccc2S(=O)(=O)C(C)C)n1	MET M1250T	enzyme activity	10 µM	reference: control	remaining activity	20%

Repeated from above:
Structure (SMILES)	target	assay	setting	scale	endpoint	result
Cc1[nH]c(/C=C2\C(=O)Nc3ccc(F)cc32)c(C)c1C(=O)N[C@H]1CCN(C(=O)N(C)C)C1	MET	kinase activity, inhibitor	1 µM	reference: no-compound control	remaining activity	78%
COc1ccc(NC(=O)C(C#N)=Cc2cccc(O)c2)cc1Cl	UCHL1	covalent, intact protein LC-MS	12.5 µM	–	labelling	36.6%
